Experimental data pooled from the literature.
Numbered parts are unrelated; each lists some results of a single study.
UniProt P00519, sequence (whole entry, unmodified, looked up): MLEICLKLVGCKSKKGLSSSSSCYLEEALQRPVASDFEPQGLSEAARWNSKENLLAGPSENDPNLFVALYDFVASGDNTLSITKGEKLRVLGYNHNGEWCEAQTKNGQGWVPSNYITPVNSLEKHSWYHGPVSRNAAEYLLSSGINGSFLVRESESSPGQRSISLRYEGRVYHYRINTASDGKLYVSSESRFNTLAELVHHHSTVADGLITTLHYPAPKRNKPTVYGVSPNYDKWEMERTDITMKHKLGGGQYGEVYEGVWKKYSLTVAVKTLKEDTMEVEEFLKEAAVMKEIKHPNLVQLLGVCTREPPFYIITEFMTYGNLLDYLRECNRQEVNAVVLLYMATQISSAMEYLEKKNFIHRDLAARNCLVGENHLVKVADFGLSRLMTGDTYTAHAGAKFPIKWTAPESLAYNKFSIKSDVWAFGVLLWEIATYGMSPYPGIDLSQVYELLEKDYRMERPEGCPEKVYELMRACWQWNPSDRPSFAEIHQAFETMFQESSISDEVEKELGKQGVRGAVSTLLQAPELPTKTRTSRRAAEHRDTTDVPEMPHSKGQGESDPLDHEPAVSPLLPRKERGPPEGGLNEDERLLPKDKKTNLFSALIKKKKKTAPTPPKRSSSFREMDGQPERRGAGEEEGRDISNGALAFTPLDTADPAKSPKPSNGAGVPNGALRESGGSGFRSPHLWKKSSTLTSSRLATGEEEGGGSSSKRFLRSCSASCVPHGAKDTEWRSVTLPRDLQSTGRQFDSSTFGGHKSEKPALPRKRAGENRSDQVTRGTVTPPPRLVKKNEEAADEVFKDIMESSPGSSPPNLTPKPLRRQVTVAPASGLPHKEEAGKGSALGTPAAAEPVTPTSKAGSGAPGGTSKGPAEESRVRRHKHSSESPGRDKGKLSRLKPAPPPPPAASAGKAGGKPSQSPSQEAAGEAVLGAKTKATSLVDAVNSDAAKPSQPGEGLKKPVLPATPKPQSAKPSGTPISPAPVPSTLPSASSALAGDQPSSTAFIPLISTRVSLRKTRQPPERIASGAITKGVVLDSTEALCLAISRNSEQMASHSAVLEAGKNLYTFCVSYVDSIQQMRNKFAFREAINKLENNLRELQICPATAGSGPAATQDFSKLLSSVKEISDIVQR
UniProt Q5S007, sequence (whole entry, looked up): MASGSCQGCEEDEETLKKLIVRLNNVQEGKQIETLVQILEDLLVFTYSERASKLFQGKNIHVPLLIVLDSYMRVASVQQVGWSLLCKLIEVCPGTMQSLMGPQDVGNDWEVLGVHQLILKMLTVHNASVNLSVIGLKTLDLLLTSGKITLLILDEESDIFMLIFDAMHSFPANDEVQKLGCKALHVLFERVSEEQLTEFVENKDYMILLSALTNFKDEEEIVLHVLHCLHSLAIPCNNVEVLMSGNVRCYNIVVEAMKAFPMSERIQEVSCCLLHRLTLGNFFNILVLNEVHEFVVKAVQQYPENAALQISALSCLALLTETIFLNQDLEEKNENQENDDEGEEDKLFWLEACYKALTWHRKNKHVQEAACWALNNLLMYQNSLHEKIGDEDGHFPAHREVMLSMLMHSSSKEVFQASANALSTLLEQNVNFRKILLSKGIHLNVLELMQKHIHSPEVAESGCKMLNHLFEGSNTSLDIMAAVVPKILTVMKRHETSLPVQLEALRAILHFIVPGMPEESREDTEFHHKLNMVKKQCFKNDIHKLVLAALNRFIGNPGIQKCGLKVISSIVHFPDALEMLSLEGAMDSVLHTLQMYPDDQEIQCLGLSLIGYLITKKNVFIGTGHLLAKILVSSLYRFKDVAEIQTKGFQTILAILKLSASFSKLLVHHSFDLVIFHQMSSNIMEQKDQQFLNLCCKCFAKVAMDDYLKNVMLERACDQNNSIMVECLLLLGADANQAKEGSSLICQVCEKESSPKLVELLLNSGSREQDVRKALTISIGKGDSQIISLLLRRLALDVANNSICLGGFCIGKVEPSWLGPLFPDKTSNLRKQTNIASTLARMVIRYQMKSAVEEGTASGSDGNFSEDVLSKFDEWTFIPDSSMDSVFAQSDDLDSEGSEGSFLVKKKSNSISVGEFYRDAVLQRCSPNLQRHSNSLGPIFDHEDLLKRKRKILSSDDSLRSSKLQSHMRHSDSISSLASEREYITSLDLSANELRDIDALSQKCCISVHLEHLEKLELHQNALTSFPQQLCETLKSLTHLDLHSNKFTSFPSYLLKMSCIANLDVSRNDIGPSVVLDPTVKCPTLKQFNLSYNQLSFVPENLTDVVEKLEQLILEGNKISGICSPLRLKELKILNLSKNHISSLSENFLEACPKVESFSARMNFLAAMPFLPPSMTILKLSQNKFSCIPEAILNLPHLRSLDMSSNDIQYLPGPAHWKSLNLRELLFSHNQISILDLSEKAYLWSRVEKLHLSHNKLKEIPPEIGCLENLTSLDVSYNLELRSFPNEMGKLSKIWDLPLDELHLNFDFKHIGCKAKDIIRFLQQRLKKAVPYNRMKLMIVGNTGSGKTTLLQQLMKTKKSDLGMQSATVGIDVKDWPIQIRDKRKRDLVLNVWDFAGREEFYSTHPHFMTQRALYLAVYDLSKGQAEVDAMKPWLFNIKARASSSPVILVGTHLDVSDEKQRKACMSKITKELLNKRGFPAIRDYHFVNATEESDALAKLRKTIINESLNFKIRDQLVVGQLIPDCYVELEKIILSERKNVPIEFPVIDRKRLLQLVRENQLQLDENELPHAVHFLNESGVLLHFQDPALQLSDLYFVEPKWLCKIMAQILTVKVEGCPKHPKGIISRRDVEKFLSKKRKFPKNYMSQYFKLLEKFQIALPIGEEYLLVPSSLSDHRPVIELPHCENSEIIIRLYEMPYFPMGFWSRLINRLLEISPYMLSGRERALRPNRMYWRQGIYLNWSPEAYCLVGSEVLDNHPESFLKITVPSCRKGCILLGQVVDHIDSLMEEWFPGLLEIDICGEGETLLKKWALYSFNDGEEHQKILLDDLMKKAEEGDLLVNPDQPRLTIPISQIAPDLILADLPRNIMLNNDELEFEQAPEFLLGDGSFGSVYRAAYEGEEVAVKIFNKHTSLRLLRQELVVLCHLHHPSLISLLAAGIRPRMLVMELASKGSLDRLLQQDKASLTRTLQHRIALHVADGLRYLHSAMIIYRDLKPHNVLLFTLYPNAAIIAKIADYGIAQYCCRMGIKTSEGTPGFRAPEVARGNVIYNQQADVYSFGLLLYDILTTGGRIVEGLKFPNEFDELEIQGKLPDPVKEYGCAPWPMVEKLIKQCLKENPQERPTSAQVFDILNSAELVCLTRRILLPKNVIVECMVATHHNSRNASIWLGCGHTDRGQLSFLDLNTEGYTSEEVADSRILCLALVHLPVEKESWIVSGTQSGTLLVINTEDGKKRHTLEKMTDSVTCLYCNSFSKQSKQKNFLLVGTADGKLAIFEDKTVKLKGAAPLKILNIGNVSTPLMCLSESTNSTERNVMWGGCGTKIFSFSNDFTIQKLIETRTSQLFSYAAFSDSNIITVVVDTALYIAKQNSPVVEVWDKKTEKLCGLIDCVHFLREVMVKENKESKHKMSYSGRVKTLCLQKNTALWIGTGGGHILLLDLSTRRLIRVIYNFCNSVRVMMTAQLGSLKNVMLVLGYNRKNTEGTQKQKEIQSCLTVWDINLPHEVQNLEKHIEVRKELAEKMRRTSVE
UniProt P37023, sequence (whole entry, looked up): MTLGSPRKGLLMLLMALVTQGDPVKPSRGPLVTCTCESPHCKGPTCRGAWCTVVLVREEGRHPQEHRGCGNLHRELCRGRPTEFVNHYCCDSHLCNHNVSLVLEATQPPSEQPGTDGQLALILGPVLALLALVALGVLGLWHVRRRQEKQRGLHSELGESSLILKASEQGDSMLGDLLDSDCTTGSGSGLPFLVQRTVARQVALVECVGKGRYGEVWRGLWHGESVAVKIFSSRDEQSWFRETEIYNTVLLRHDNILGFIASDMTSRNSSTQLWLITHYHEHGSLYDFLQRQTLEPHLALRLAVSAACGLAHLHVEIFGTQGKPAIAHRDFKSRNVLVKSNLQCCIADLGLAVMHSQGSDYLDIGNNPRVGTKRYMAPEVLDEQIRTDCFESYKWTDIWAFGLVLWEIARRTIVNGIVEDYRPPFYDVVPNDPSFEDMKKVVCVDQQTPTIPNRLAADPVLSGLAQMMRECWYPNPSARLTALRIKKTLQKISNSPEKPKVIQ
UniProt P54764, sequence (whole entry, looked up): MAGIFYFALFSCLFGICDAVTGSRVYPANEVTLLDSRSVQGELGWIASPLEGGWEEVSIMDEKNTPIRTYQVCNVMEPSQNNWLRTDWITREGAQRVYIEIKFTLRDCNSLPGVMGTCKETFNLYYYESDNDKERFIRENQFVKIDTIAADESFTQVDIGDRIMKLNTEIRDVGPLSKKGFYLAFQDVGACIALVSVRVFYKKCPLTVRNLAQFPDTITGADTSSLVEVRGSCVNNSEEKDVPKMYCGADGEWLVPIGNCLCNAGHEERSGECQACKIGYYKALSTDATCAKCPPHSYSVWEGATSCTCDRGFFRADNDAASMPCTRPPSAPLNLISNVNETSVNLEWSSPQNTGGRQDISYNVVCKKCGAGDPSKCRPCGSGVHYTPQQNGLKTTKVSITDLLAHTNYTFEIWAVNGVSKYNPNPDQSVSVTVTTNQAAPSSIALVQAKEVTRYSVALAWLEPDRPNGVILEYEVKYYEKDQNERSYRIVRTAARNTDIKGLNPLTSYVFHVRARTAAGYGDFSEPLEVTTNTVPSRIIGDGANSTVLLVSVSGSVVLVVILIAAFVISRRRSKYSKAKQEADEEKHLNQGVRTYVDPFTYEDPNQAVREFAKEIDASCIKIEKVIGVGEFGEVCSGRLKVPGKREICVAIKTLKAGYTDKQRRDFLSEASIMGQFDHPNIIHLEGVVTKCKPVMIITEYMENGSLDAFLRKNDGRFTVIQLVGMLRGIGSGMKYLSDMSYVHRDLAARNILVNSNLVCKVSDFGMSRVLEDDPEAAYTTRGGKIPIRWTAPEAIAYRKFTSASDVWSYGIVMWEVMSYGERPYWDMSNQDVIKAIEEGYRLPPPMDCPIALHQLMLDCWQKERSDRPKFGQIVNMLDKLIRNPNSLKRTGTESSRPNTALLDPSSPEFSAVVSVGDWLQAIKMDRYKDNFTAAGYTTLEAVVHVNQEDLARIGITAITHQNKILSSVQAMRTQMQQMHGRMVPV

Series 1
Compound: CC(C)n1cnc(-c2ccc(F)cc2)c1-c1ncc(C(=O)Nc2ccc(N3CCN(C)CC3)cc2)[nH]1
Method: phase 2a trial
Species: idiopathic pulmonary fibrosis patients
| setting | patients with eczema |
| --- | --- |
| all arms pooled, grade 4 emergent event | 0% |
| 60 mg once daily, grade 5 emergent event | 0% |
| all arms pooled, grade 3 emergent event | 0% |

Series 2
Target: Mitogen-activated protein kinase kinase kinase 7 (MAP3K7, Homo sapiens, UniProt O43318)
Observed: enzyme activity
Action: inhibitor
Tested at: 0.5 µM
Relative to: control
Construct (O43318 1-606): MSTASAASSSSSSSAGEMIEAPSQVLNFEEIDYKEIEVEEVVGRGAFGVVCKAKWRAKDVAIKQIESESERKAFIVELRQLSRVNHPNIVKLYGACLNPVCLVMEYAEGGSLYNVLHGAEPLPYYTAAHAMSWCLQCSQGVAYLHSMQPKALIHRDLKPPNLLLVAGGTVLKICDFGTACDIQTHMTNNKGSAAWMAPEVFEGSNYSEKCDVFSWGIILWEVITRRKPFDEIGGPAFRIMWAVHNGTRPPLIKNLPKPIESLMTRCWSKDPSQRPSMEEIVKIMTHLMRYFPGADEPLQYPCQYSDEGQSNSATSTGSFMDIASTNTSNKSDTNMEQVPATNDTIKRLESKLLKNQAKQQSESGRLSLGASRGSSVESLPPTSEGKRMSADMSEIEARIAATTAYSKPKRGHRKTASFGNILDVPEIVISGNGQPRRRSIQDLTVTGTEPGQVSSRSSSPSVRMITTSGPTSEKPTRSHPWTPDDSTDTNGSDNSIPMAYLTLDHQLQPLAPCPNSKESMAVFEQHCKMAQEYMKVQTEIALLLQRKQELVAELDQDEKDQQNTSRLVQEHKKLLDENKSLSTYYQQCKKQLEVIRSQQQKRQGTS
| Structure (SMILES) | remaining activity |
| --- | --- |
| COc1cc2ncnc(N3CCN(C(=O)Nc4ccc(Oc5ccccc5)cc4)CC3)c2cc1OC | 98.3% |
| CC(C)[C@H](CO)Nc1nc(Nc2cccc(Cl)c2)c2ncn(C(C)C)c2n1 | 71.1% |
| Cc1nc(Nc2ncc(C(=O)Nc3c(C)cccc3Cl)s2)cc(N2CCN(CCO)CC2)n1 | 87.3% |
| COc1ccc(-c2cnc3c(-c4ccsc4)cnn3c2)cc1 | 97.6% |
| CCOc1cc2ncnc(Nc3cccc(Br)c3)c2cc1OCC | 102% |
| COc1cc2ncnc(Nc3ccc(OCc4ccccc4)cc3)c2cc1OC | 101% |
| CN(C)CCCn1cc(C2=C(c3c[nH]c4ccccc34)C(=O)NC2=O)c2ccccc21 | 93.6% |
| CC(C)c1nn(-c2c(Cl)cccc2Cl)c2nc(Cc3ccc(OCCO)cc3)[nH]c(=O)c12 | 98.5% |

Series 3
SMILES: Cc1c(C(=O)O)cc(-c2ccc(C3CCNCC3)cc2)c2ccc(-c3ccc(C(F)(F)F)cc3)cc12
Method: competition with immobilised ligand
Tested at: 1 µM
| target | assay | remaining binding [%] |
| --- | --- | --- |
| FLT3 (Homo sapiens, UniProt P36888, N841I) | binding | 100 |
| EPHA4 (Homo sapiens, UniProt P54764) | cell-free assay | 100 |
| GRK3 (Homo sapiens, UniProt P35626) | binding | 71 |
| Tyrosine-protein kinase JAK1, JH1 (JAK1, Homo sapiens, UniProt P23458) | binding | 100 |
| COQ8A (Homo sapiens, UniProt Q8NI60) | cell-free assay | 100 |
| NEK2 (Homo sapiens, UniProt P51955) | binding | 100 |
| PRKCE (Homo sapiens, UniProt Q02156) | cell-free assay | 100 |
| MAP4K1 (Homo sapiens, UniProt Q92918) | binding | 90 |
| ACVRL1 (Homo sapiens, UniProt P37023) | binding | 100 |
| Tyrosine-protein kinase ABL1, non-phosphorylated (ABL1, Homo sapiens, UniProt P00519, F317I) | binding | 100 |
| CDKL5 (Homo sapiens, UniProt O76039) | binding | 100 |
| Tyrosine-protein kinase ABL1, phosphorylated (ABL1, Homo sapiens, UniProt P00519, F317L) | binding | 100 |
| LRRK2 (Homo sapiens, UniProt Q5S007) | binding | 100 |
| FLT3 (Homo sapiens, UniProt P36888, F691L/ITD) | binding | 100 |

Series 4
Compound: COc1cc(C(=O)N2CCC(N3CCN(C)CC3)CC2)ccc1Nc1ncc2c(n1)N(C)c1ccccc1C(=O)N2C
Method: KINOMEscan
Tested at: 10 µM
Relative to: DMSO control
Direction: lower = stronger binding
| target | binding [%] |
| --- | --- |
| RIOK1 | 100 |
| BLK | 97 |
| ADCK3 | 71 |
| TBK1 | 97 |
| PRKX | 99 |

Excerpt of the above (series 3):
| target | assay | remaining binding [%] |
| --- | --- | --- |
| ACVRL1 (Homo sapiens, UniProt P37023) | binding | 100 |
| Tyrosine-protein kinase ABL1, non-phosphorylated (ABL1, Homo sapiens, UniProt P00519, F317I) | binding | 100 |
